{"data": "Measurements of several laboratories", "note": "Numbered parts are unrelated; each lists some results of a single study. Substitutions count along the parent as printed."}
{"data": "Study 1", "target": "RING finger protein unkempt homolog, zinc fingers 1-6, GST-SBP tag (UNK, Homo sapiens, UniProt Q9C0B0, residues 30-357)", "technique": "RNA Bind-n-Seq", "molecule type": "RNA", "medium": "in vitro", "tested at": "not given", "notes": "RNA with constant flanks, human-mouse chimeric sites, ends assumed", "baseline": "input RNA pool", "direction": "higher = stronger binding", "constant ends, left off below": "GGGAGUUCUACAGUCCGACGAUC … CAACAGAGGAUUGAGCAUCA", "chain of UniProt Q9C0B0 (30-357, looked up)": "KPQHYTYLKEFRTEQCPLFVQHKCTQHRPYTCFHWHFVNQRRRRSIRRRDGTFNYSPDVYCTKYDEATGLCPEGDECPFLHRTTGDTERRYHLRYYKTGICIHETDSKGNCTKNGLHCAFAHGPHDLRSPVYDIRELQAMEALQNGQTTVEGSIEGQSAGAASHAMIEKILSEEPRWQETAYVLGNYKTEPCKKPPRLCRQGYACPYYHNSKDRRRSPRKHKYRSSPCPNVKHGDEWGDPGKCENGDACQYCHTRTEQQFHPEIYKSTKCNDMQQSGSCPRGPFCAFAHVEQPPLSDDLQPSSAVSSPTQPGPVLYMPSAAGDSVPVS"}
{"Sequence": "UCUUUAAAAAAAAAAUUACCUUUUCUGACAGUGCUUUAUGGAGUAAAGAUCCACGUUCAAGCUCAAAGGCCAAAACUUUUGCACGGAGCUCAAACAUCUGAUGAAGAAAGAUUUCUGAGA", "bound/input enrichment [ratio]": 0.228}
{"Sequence": "CUGAAAAACACAGAUAUCAAAGUUGUUGACUUUGGAAGUGCAACGUAUGAUGAUGAACAUCACAGUACUUUGGUGUCUACCCGGCACUACAGGGCUCCCGAGGUCAUUUUGGCUUUAGGU", "bound/input enrichment [ratio]": 0.393}
{"Sequence": "CAGUCCCGCGACAGCGUUGCAGGACGAGAACAUGGACAACUCAAAGCGGACCCUCUAUUGUAGUUCUUGAUUCUCGAAAUGUGCUAUUAUUGUUUGUCUUUUUUUUUUUUUUUUUAAAGA", "bound/input enrichment [ratio]": 0.746}
{"Sequence": "ACCAUUUUCGCGGUUCAGGCUUUGUGUUGUAUUUACUUACGGUAUUAAAUUAUUAUUCUGCUUAGCUUAAAGUAAGGAUAAUUGCAUUUAAAGAGGUUACUGAAUGUUACUCUGAAACUU", "bound/input enrichment [ratio]": 0.254}
{"Sequence": "ACAGUUAUAUUGUUGAGGUUUGUAUUUAUAUAUUCUUGUAGUGUCUGCUUGCCUGUGACUUCUGGUAAAAUAAAAUAAGCCUUUGAAUUAGCAUGCUCAUGGUAUUUAACAUUUUCUAAA", "bound/input enrichment [ratio]": 1.05}
{"Sequence": "AAAGAGAAACUAAAGCAACUAAUAGAGAAGAGGAUUGGCAAAGAGAAUUUCAUAGAGGAAACUAGGAUUAUUAGCAAACAUGAGUUAUAUUCCAGAGCGUCUCAGAAAACCCCAGCCAAC", "bound/input enrichment [ratio]": 4.78}
{"Sequence": "AAAUCAUGUGUGUCCAAUAUUGAAAGUGCUUUAUCUACACUCCAAUAUGUAAGCAGUAUAGUAGUUUCUUUAGAGAAUAGGUCAGCCAUUGUAAAGUACAAUGCAAGCUUAGUCACUCCA", "bound/input enrichment [ratio]": 13.1}
{"Sequence": "AUGGAACAUUUUGAUGCGUCACUCAGUACCUAUUUCAAGGCCUUCCUGGGCCCCCGAGAUACAAGAGUCAAAGGAUGGUUCCUCCUGGACAAUUAUAUCCCUACGUUUGUCUGUUCUGUU", "bound/input enrichment [ratio]": 0.137}
{"data": "Study 2", "target": "ABI1, truncated, D143A, DHFR fusion (Arabidopsis thaliana)", "technique": "DHFR PCA, deep sequencing", "medium": "yeast", "notes": "methotrexate growth selection, single substitutions", "added": "(+)-ABA 0.39 µM", "baseline": "wild-type fitted maximum", "direction": "higher = stronger binding", "parent": "PYL1, truncated, DHFR fusion (Arabidopsis thaliana); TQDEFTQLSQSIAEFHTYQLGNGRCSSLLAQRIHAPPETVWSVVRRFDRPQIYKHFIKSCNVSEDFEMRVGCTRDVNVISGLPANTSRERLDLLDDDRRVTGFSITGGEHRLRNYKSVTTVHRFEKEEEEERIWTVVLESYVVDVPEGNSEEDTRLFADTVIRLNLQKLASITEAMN; partner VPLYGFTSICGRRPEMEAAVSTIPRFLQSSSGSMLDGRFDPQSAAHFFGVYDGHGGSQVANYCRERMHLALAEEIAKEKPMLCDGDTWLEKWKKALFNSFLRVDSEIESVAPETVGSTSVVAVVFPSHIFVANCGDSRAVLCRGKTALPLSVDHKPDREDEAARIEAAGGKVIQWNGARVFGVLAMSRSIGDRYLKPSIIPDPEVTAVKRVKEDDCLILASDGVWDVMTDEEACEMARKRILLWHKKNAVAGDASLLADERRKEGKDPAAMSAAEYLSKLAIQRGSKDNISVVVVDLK"}
{"Variant": "F47W", "relative binding score": "-5.34%"}
{"Variant": "E125Q", "relative binding score": "65.6%"}
{"Variant": "T173I", "relative binding score": "2.01%"}
{"Variant": "P37F", "relative binding score": "-4.41%"}
{"Variant": "T160V", "relative binding score": "-5.74%"}
{"data": "Study 3", "target": "CCNA2, cyclin fold, Cln2 fusion (human)", "technique": "yeast growth competition, sequencing", "medium": "yeast", "notes": "strong parent motif", "baseline": "not given", "direction": "higher = stronger binding", "parent": "GMNC docking peptide (human); KNAKRNLSSEFAN"}
{"Variant": "A12N", "normalised enrichment score": 5.63}
{"Variant": "R5H", "normalised enrichment score": 0.551}
{"Variant": "N6P", "normalised enrichment score": 0.344}
{"Variant": "A3G", "normalised enrichment score": 1.52}
{"Variant": "L7S", "normalised enrichment score": 0.0553}
{"Variant": "E10K", "normalised enrichment score": 1.12}
{"Variant": "L7G", "normalised enrichment score": 0.122}
{"Variant": "F11Q", "normalised enrichment score": 0.58}
{"Variant": "A3P", "normalised enrichment score": 3.08}
{"data": "Single results of other studies"}
{"Substance": "PhoQ, residues 284 288 289 292 302 303 SASVAL", "target": "PhoP, residues 12 14 15 18 19 HLGGL (Escherichia coli, UniProt P23836)", "assay": "Sort-seq, refers to: YFP reporter", "test system": "E. coli", "conditions": "PhoQ-PhoP variant library, added: 10 µM Mg2+", "how to read": "baseline: high Mg2+ state, higher = stronger signaling", "quantity": "fold induction", "result": 0.777}
{"note": "A few entries again (study 2):"}
{"Variant": "F47W", "relative binding score": "-5.34%"}
{"Variant": "T173I", "relative binding score": "2.01%"}
{"Variant": "E125Q", "relative binding score": "65.6%"}
